Measurements of several laboratories.
Every numbered part comes from another study and shows a few of its results, in no order.

Set 1 — method: protein-binding microarray; molecule type: double-stranded DNA, one strand shown; sample: in vitro; concentration: 250 nM; notes: 60-bp whole probe; with: salmon DNA 0.4 mg/ml; reference: random background probes; reading: higher = stronger binding
Target: Interferon regulatory factor 7, full length, phosphomimetic (IRF7, Homo sapiens, UniProt Q92985, residues 1-503, S101K/S471D/S472D/S475D/S476D/S477D/S483D/S484D/S487D)
Chain of UniProt Q92985 (whole entry, unmodified, looked up): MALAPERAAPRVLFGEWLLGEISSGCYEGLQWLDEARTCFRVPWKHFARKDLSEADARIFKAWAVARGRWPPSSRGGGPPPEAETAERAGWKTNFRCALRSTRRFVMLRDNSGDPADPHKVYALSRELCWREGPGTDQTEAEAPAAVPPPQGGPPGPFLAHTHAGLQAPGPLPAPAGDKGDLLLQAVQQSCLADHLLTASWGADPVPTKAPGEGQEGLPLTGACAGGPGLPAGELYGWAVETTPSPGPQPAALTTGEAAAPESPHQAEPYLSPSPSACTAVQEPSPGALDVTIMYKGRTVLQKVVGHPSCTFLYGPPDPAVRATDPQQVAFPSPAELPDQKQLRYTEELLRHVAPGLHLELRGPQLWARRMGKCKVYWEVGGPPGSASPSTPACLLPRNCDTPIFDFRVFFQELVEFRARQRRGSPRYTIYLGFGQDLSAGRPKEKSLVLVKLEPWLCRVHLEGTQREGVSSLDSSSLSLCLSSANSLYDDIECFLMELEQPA
| Oligonucleotide | log fluorescence [z-score] |
| --- | --- |
| GCCTAGCACTCAGGTTTCAGATGCGTACTGTGCTAGGTCTTGATTCGCTTGACGCTGCTG | 1.18 |
| GCCTAGCACTTAGGTCTCGGTCTCTGTTAGTGCTAGGTCTTGATTCGCTTGACGCTGCTG | 2.15 |
| GCCTAGCACGACGATTCCAGACTGGAGACGTGCTAGGTCTTGATTCGCTTGACGCTGCTG | 0.136 |
| GCCTAGCACCTAGATTTCAGTTCCGATTAGTGCTAGGTCTTGATTCGCTTGACGCTGCTG | 2 |

Set 2 — method: protein-binding microarray; molecule type: double-stranded DNA, one strand shown; sample: in vitro; concentration: 0.8 µM; notes: whole 60-bp probe, no competitor; reading: higher = stronger binding; all sequences stand within: … GTCTTGATTCGCTTGACGCTGCTG
Target: Centromere-binding protein 1, full length, N-terminal tag (CBF1, Saccharomyces cerevisiae, UniProt P17106, residues 1-351)
Chain of UniProt P17106 (whole entry, looked up): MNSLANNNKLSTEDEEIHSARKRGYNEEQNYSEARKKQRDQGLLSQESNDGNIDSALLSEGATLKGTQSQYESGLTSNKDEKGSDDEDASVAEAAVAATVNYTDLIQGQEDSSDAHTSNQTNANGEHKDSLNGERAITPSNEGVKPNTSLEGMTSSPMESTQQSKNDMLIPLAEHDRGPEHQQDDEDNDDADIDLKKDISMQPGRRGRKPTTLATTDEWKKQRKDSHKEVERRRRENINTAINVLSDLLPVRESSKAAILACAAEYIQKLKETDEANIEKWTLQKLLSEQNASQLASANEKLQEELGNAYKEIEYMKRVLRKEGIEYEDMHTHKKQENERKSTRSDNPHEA
| Oligonucleotide | fluorescence intensity [a.u.] |
| --- | --- |
| CTAAAAAGAAATTCAAACGTGGGCTGCCTATTATTC | 500 |
| CTAGACTAAAGAAGTGGTGTGAGTATAATTAACTTC | 538 |
| CTACCGTGCGTTCTCCCCGTGCCTTGATAAGCATTC | 687 |
| TGTACGAAGCTATGGCGCGTGTCTATAGTAGTTAGG | 668 |
| CTATATGTAGCTACCAACGTGGGAAAACCTTTCTTC | 545 |

Set 3 — method: universal PBM; molecule type: double-stranded DNA, one strand shown; sample: in vitro; concentration: 600 nM; reading: higher = stronger binding
Target: Sal-like protein 4, full length isoform A (SALL4, Homo sapiens, UniProt Q9UJQ4, residues 1-1053)
Chain of UniProt Q9UJQ4 (whole entry, looked up): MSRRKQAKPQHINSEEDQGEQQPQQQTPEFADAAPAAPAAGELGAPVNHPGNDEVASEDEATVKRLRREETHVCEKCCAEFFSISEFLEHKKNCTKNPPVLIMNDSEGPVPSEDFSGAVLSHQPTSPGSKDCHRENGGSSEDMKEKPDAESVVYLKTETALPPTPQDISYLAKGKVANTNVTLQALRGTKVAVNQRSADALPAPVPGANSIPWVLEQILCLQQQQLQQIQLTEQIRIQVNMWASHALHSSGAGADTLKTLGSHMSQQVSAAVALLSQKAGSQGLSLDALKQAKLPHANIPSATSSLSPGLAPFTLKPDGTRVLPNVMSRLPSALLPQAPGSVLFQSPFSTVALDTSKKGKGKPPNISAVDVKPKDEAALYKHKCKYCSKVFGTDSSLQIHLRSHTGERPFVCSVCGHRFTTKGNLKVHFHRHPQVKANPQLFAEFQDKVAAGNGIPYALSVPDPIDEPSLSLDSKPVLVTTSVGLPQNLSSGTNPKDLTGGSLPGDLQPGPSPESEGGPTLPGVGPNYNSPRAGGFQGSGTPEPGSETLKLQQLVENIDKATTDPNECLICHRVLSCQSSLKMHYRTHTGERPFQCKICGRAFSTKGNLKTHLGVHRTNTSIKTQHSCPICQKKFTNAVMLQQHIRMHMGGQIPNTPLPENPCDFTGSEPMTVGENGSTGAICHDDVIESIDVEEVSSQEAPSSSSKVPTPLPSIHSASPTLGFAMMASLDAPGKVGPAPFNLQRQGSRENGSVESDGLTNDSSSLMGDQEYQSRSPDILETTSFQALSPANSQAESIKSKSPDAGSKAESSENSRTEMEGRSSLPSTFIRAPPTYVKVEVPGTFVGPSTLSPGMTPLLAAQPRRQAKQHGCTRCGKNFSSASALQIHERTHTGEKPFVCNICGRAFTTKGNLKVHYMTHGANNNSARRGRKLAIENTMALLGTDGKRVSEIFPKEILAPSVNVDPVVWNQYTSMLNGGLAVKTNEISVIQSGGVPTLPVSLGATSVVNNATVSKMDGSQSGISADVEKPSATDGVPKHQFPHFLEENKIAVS
Notes: 8-mer, flanks averaged, mean of replicates
| Oligonucleotide | E-score |
| --- | --- |
| AACGAATG | 0.0437 |
| AATGCACT | 0.207 |
| GTCCAGAA | -0.00524 |
| ATTGCGGG | -0.000655 |
| GCTACGAA | 0.0207 |

Mixed results
| Molecule | target | assay | test system | conditions | how to read | quantity | value |
| --- | --- | --- | --- | --- | --- | --- | --- |
| PhoQ, residues 284 288 289 292 302 303 AAQSYM | PhoP, residues 12 14 15 18 19 QYFSL (Escherichia coli, UniProt P23836) | Sort-seq, item: YFP reporter | E. coli | PhoQ-PhoP variant library, with: 10 µM Mg2+ | reference: high Mg2+ state, higher = stronger signaling | fold induction | 11.1 |
